Experimental data pooled from the literature.
Compare with care: the assays were run in different laboratories. Several values in a cell are separate wells, animals, samples, runs or records. ± marks the error that the study gave.

SMILES	assay	system	setting	how to read	endpoint	value
CN(CCCN1CCN(C(=O)CN2CCN(CC(=O)[O-])CCN(CC(=O)[O-])CCN(CC(=O)[O-])CC2)CC1)c1ccc2nccc(C(=O)NCC(=O)N3CC(F)(F)C[C@H]3C#N)c2c1.[68Ga+3]		mouse, HT-1080.hFAP/HT-1080.wt xenograft, HT-1080.hFAP tumour	iv, 500 pmol, 1 h		tumour uptake	3.9 %IA/g
O=C([O-])CN1CCN(CC(=O)[O-])CCN([C@H](CO)[C@H](O)CO)CCN(CC(=O)[O-])CC1.[Gd+3] (racemic)	LC-ICP-MS	human plasma	pH 7.4, 37 °C		dissociation rate	0.008 %/day
O=C(Nc1c2c(cc3c1CCC3)CCC2)NS(=O)(=O)/C=C/c1nccs1		human liver microsomes	1 µM, 30 min, with: NADPH		metabolized fraction	23.8%
COc1ccc([C@@H](O)c2cc(-c3ncnc4cc(N5CCOCC5)ccc34)c(F)cc2Cl)nn1		locally advanced rectal cancer patients	150 mg, with: capecitabine and radiotherapy		nausea TEAE incidence	33%
O=C(OC(C(F)(F)F)C(F)(F)F)N1CCN(Cc2cccc(Oc3ccccc3)c2)CC1	PET blocking study	rhesus monkey, brain STR	0.01 mg/kg, compound pretreatment, with: [18F]T-401 tracer		k2	0.308 min⁻¹
OCc1nc2ccc(NCc3ccc(C(F)(F)F)cc3)cc2[nH]1		Balb/c mouse, male, lungs	intravenous, 1 mg/kg, 6 h	reference: tissue over plasma	tissue/plasma ratio	2.6 ± 0.3
Cc1ccc(N(C)C(=O)/C=C/c2ccco2)cc1	cold plate test	mice	oral, 30 mg/kg single, 15 min		licking latency	19.1 ± 0.5 s
C[C@@H](Nc1cc(F)cc(F)c1)c1cc(C(=O)N(C)C)cc2c(=O)cc(N3CCOCC3)oc12		advanced solid tumour patients	oral, 60 mg twice daily, continuous monotherapy		any dose interruption	33.3%
C[C@@H]1OC(=O)[C@H](Cc2ccccc2)[C@H]1O		Swiss Lake sand sediment, aerobic dark	20 °C		DT50 water	34.8 days
COc1cc(C(=O)NC2CCN(C)CC2)c(F)cc1Nc1ncc(C(F)(F)F)c(Oc2cccc3c2C(=O)N(C)C3)n1		human patients, plasma	oral, 100 mg single dose, geometric mean		dose-normalised AUC(0-inf)	230 nmol·h/L per mg
COc1ccnc(C(N)=O)c1O	aerobic dark soil incubation	soil	geometric mean of 4 soils, persistence endpoint		DT50	11.8 days
Cc1cc(-c2nnc(N)nc2-c2ccc(F)cc2)cc(Cl)n1		human male, IO-naive mCRPC	oral, dose not given, phase Ia/Ib, any grade		patients with treatment-related dizziness	15.4%
CC[C@H](C)[C@H](NC(=O)[C@H](Cc1ccccc1)NC(=O)[C@H](CCC(=O)O)NC(=O)[C@H](CCCCNC(=O)COCCOCCNC(=O)COCCOCCNC(=O)CC[C@H](NC(=O)CCCCCCCCCCCCCCCCC(=O)O)C(=O)O)NC(=O)[C@H](C)NC(=O)[C@H](C)NC(=O)[C@H](CCC(N)=O)NC(=O)CNC(=O)[C@H](CCC(=O)O)NC(=O)[C@H](CC(C)C)NC(=O)[C@H](Cc1ccc(O)cc1)NC(=O)[C@H](CO)NC(=O)[C@H](CO)NC(=O)[C@@H](NC(=O)[C@H](CC(=O)O)NC(=O)[C@H](CO)NC(=O)[C@@H](NC(=O)[C@H](Cc1ccccc1)NC(=O)[C@@H](NC(=O)CNC(=O)[C@H](CCC(=O)O)NC(=O)C(C)(C)NC(=O)[C@@H](N)Cc1cnc[nH]1)[C@@H](C)O)[C@@H](C)O)C(C)C)C(=O)N[C@@H](C)C(=O)N[C@@H](Cc1c[nH]c2ccccc12)C(=O)N[C@@H](CC(C)C)C(=O)N[C@H](C(=O)N[C@@H](CCCNC(=N)N)C(=O)NCC(=O)N[C@@H](CCCNC(=N)N)C(=O)NCC(=O)O)C(C)C	12-lead Holter ECG	healthy humans	subcutaneous, 1.5 mg once weekly, 26 h, steady state	reference: placebo	QTcB change from baseline	9.5 ms
CCc1nn(C)c2nc(-c3ccc(C(=O)O)cc3)nc(NCc3ccc(F)cc3)c12		NSG mice	dose not given, day 15 of treatment		body weight	23.6 g and 23.3 g and 21.8 g and 22.5 g
CNC(=O)c1ccc(-c2cnc3ncc(Cc4ccc5ncccc5c4)n3n2)cc1F		Japanese patients	oral, 400 mg twice daily, any grade		Dizziness patients	1%
Cc1ccc(C(=O)N(CCCN)C(c2nc3snc(C)c3c(=O)n2Cc2ccccc2)C(C)C)cc1 (centres unmarked)	hypophosphataemia grade ≥3 (CTCAE)	human patients	intravenous, 4 mg/day		patients with adverse event	0%
COc1ccc2c3c([nH]c2c1)[C@H](CC(C)C)N1C(=O)[C@H](CC(=O)NC(C)C)NC(=O)[C@@H]1C3		wild-type mouse	oral, 100 mg/kg daily, 23 days		liver to body weight ratio	4.63% and 4.67%
CC(C)(C)OC[C@@H]1C(=O)NCCN1C(=O)C[C@H](N)Cc1cc(F)c(F)cc1F	measured: infections and infestations	healthy Korean men	oral, dose not given		number of TEAEs	2
CCc1c(-c2ccccc2)c(-c2ccccc2)nn1-c1ccccc1-c1cccc(OCC(=O)O)c1		Sprague-Dawley rat, fat homogenate	oral, 10 mg/kg, 8 h		concentration	204 ng/mL and 170 ng/mL
O=C1NCCc2nc(OCc3cccc(F)c3)ccc21	measured: loss of Righting	Sprague-Dawley rat male	oral, 100 mg/kg, 30 min	direction not given	Irwin test score	0
CCc1cc(C(=O)NC)c2nccc(N3CCc4c(cc(Cn5ccnc5)cc4-c4cn(C)nc4C(F)(F)F)C3=O)c2c1		Sprague Dawley rats	oral, 100 mg/kg twice daily, day 3	reference: day 1	body weight change	3.6%
Cc1cc(NC2CCN(C(=O)OC3CCN(C(=O)/C=C/CN(C)C)C3)CC2)n2ncc(C(C)C)c2n1 (centres unmarked)	Phase I dose escalation CTCAE v4.0, measured: pain in extremity	patients with advanced solid tumours	dose not given, QD dosing grade 3 or higher		patients with adverse event	0%

SMILES	assay	system	setting	how to read	endpoint	value
C=CCN1CC(=O)N2[C@@H](Cc3ccc(O)cc3F)C(=O)N(Cc3cccc(N4CC(N5CCN(CC)CC5)C4)n3)C[C@@H]2N1C(=O)NCc1ccccc1		advanced solid tumour patients	oral, 30 mg twice daily, grade ≥3, dose-escalation		treatment-related diarrhoea	0%
Cc1c(Cl)c(C)[n+]([O-])c(Cl)c1-c1noc(-c2cc(O)c(O)c([N+](=O)[O-])c2)n1	measured: Moderate severity	healthy Caucasian subjects	oral, 50 mg, 10 days		adverse event incidence	6.7%
CCn1cc(C(=O)N2CCOCC2)c(=O)c2cc(NC3Cc4ccccc4C3)cnc21		human male, fed, plasma	oral, 900 mg twice daily, day 1, tablet, arithmetic mean		CL/F	33.3 L/h
Cc1cccc(CNC(=O)c2cn(CCNC(=O)c3ccccc3Sc3c([N+](=O)[O-])ncn3C)c3cc4c(cc3c2=O)OC(F)(F)O4)n1		Sprague-Dawley rat, male, plasma	intramuscular, 3 mg/kg of parent compound		AUC(0-t)	164 ± 57.7 ng·h/mL
COc1cc(Nc2ncc3c(n2)-c2ccc(Cl)cc2C(c2c(F)cccc2OC)=NC3)ccc1C(=O)O		patients	oral, dose not given, grade 3, any attribution, with: pembrolizumab		decreased white cell count incidence	17%
CSc1ccccc1C(=O)NCCn1cc(C(=O)NCc2cccc(C)n2)c(=O)c2cc3c(cc21)OC(F)(F)O3		Sprague-Dawley rat, male, plasma	intravenous, 5 mg/kg of parent compound		AUC(0-t)	173 ± 20 ng·h/mL
COc1ccc2c(c1)c(CC(=O)O)c(C)n2C(=O)c1ccc(Cl)cc1		rat, stomach	concentration not given, 4 h		ulcer number	8
NC1(C(=O)N[C@@H](CCO)c2ccc(Cl)cc2)CCN(c2nc[nH]c3nccc2-3)CC1	LC-MS/MS, non-compartmental	human patients, plasma	160/480 mg cohort, cycle 2, median, with: enzalutamide		Tmax	2 h
O=C(Nc1nc2cccc(-c3ccc(CN4CCS(=O)(=O)CC4)cc3)n2n1)C1CC1	measured: general and administration-site disorders	rheumatoid arthritis patients	oral, 300 mg once daily, 4 weeks, any relatedness		treatment-emergent adverse events	10%
O=C(O)CCC(=O)O.[2H]C([2H])([2H])Oc1cc(C)c2[nH]ccc2c1CN1CC[C@@H](C2CC2)C[C@H]1c1ccc(C(=O)O)cc1		healthy Chinese subjects	50 mg, single ascending dose		TEAE urine leukocyte positive	0%
Cn1cncc1-c1c(F)cncc1NC(=O)c1c(N)nn2cc(F)cnc12		patients, advanced solid tumours	oral, 180 mg once daily	reference: patients	grade ≥1 adverse events	100%
C[C@@H](O)CCOC(=O)C[C@@H](C)O		human	oral drink, dose not given, 90 min post dose, mean		heart rate	75 beats/min
C[C@@H](N)C1CCN(S(=O)(=O)c2cccc3cnccc23)CC1		healthy volunteers	25 mg, fasted		participants with epistaxis	0%
N#Cc1ccc2c(c1)[C@H]1CCCN(C(=O)c3ccc4[nH]cnc4c3)[C@H]1C2		human, male	160 mg, day 15		androstenedione level	15.6 nmol/L
Cc1nc(-c2cnc(NC(C)C)n(C)c2=O)ccc1Oc1ccnc(-c2cnn(C)c2)c1		DBA/1 mouse, female, plasma	oral, 30 mg/kg, single dose		apparent clearance	1.83 mL/min/kg
O=C(O)CCCOc1ccc([18F])cc1-c1cc(-c2ccccc2C(F)(F)F)n(-c2ccccc2)n1	gamma counting	male ddY mice, heart	intravenous, 2.1 MBq, 1 min		radioactivity uptake	3.17 ± 1.02 SUV
C[C@H]1Oc2cc(cnc2N)-c2c(nn(C)c2C#N)CN(C)C(=O)c2ccc(F)cc21	population PK	healthy participants and patients, plasma	oral, 100 mg, mean, single dose		clearance	150 mL/min
C[C@H]1CN(C(=O)CC#N)[C@]12CCN(c1ncnc3[nH]ccc13)C2		human	oral, 3 mg single dose		participants with treatment-related TEAEs	0%
Cc1ccc2nc(-c3ccccc3)c(CNc3ccc(F)cc3)n2c1		peritoneal macrophages, Swiss mice	5 days, 5% fetal calf serum		CC50	> 63.1 µM
Cc1cn([C@H]2C[C@H]([18F])[C@@H](CO)O2)c(=O)[nH]c1=O	PET/CT, bi-exponential fit	Sprague-Dawley rat, nasal cavity	intranasal	reference: dose	nasal clearance amplitude A	78.9%
Cc1ccc(S(=N)(=O)c2ccccc2)cc1 (centres unmarked)		human liver microsomes		reference: hepatic blood flow	metabolic stability	45%
COc1cc(C(=O)N2CCC3(CC2)CC(=O)c2c(cnn2C(C)C)C3)cc(-c2ccc(C(=O)O)cc2)n1	measured: total cholesterol	human, fasting serum	30 mg every 12 h, day 13, adjusted geometric mean	reference: baseline and placebo	placebo-adjusted change from baseline	-2%

A few entries again:
SMILES	assay	system	setting	how to read	endpoint	value
Cn1cncc1-c1c(F)cncc1NC(=O)c1c(N)nn2cc(F)cnc12		patients, advanced solid tumours	oral, 180 mg once daily	reference: patients	grade ≥1 adverse events	100%
C[C@@H](O)CCOC(=O)C[C@@H](C)O		human	oral drink, dose not given, 90 min post dose, mean		heart rate	75 beats/min
C[C@@H](N)C1CCN(S(=O)(=O)c2cccc3cnccc23)CC1		healthy volunteers	25 mg, fasted		participants with epistaxis	0%
N#Cc1ccc2c(c1)[C@H]1CCCN(C(=O)c3ccc4[nH]cnc4c3)[C@H]1C2		human, male	160 mg, day 15		androstenedione level	15.6 nmol/L
Cc1nc(-c2cnc(NC(C)C)n(C)c2=O)ccc1Oc1ccnc(-c2cnn(C)c2)c1		DBA/1 mouse, female, plasma	oral, 30 mg/kg, single dose		apparent clearance	1.83 mL/min/kg
O=C(O)CCCOc1ccc([18F])cc1-c1cc(-c2ccccc2C(F)(F)F)n(-c2ccccc2)n1	gamma counting	male ddY mice, heart	intravenous, 2.1 MBq, 1 min		radioactivity uptake	3.17 ± 1.02 SUV
